Published values of several laboratories.
Protocols differ between the studies behind these lines. Several values in a cell are separate wells, animals, samples, runs or records. ± marks the error that the study gave.
CASP10: Caspase-10 (CASP10, Homo sapiens, UniProt Q92851)
CASP8: Caspase-8 (CASP8, Homo sapiens, UniProt Q14790)
HSD3B1: 3 beta-hydroxysteroid dehydrogenase/Delta 5-->4-isomerase type 1 (HSD3B1, Homo sapiens, UniProt P14060)

CC(=O)N[C@@H](CC(=O)O)C(=O)N[C@@H](CO)C(=O)N[C@@H](C)C(=O)N[C@@H](CC(=O)O)C(=O)COC(=O)c1c(C)cccc1C
kinact/KI (CASP10; enzyme activity, inhibitor): 96000 M⁻¹ s⁻¹

CCN(CC)C(CO)c1cccc2c(C)c(C)oc12 (stereo not shown)
fold change (LPAR1 (Homo sapiens, UniProt Q92633, W271A); G-protein dissociation, agonist, NanoBiT; HEK-293T; 100 nM, W271A mutant; reference: baseline luminescence): 0.858 and 0.959 and 0.85 and 0.777 and 0.885 and 0.974

Cc1ccc2oc(=O)cc(Cn3ccnc3)c2c1
agonist activity (ADRA1A (Homo sapiens, UniProt P35348); calcium mobilization, agonist; COS-7; 500 µM; reference: 3 µM ionomycin): 18.5 ± 3.28%

CC[C@H](C)[C@H](NC(=O)[C@H](CCC(=O)O)NC(=O)[C@H](Cc1ccc(I)cc1)NC(C)=O)C(=O)N[C@@H](CC(=O)O)C(=O)COC(=O)c1c(C)cccc1C
kinact/KI (CASP8; enzyme activity, inhibitor): 956000 M⁻¹ s⁻¹

N#CN1CC[C@H](C(=O)Nc2nc3c(s2)CN(C(=O)Cn2cc(CNC(=O)CCCC[C@@H]4SC[C@@H]5NC(=O)N[C@@H]54)nn2)CC3)C1
iBAQ abundance (PCMT1 (Homo sapiens, UniProt P22061); probe binding, affinity probe, neutravidin pull-down LC-MS/MS; HEK293T, cell lysate; 5 µM, 1 h, mean of three replicates, unit not given; higher = more pulled down): 2.49e+08

Cc1cn(CC(=O)N(CC(=O)N[C@H]2COC[C@@H]2N(CC(=O)NCCOCCOCC(N)=O)C(=O)Cn2cnc3c(N)ncnc32)[C@H]2COC[C@@H]2NC(=O)CN(C(=O)Cn2cnc3c(N)ncnc32)[C@H]2COC[C@@H]2NC(=O)CN(C(=O)Cn2cnc3c(=O)[nH]c(N)nc32)[C@H]2COC[C@@H]2NC(=O)CN(C(=O)Cn2cc(C)c(=O)[nH]c2=O)[C@H]2COC[C@@H]2NC(=O)CN(C(=O)Cn2cnc3c(=O)[nH]c(N)nc32)[C@H]2COC[C@@H]2NC(=O)CN(C(=O)Cn2cc(C)c(=O)[nH]c2=O)[C@H]2COC[C@@H]2NC(=O)CN(C(=O)Cn2cnc3c(N)ncnc32)[C@H]2COC[C@@H]2NC(=O)CN(C(=O)Cn2cnc3c(=O)[nH]c(N)nc32)[C@H]2COC[C@@H]2N)c(=O)[nH]c1=O
ΔS (complementary DNA; duplex formation, UV melting curve fit; PBS; 1 µM): -187 ± 2 cal/mol/K

N=C(N)NCCC[C@H](NC(=O)[C@@H]1CCCN1C(=O)[C@H](CCCNC(=N)N)NC(=O)[C@@H]1CCCN1C(=O)[C@H](CCCNC(=N)N)NC(=O)[C@@H]1CCCN1C(=O)[C@H](CCCNC(=N)N)NC(=O)[C@@H]1CCCN1C(=O)[C@H](CCCNC(=N)N)NC(=O)[C@@H]1CCCN1C(=O)[C@H](CCCNC(=N)N)NC(=O)[C@@H]1CCCN1C(=O)[C@H](CCCNC(=N)N)NC(=O)[C@@H]1CCCN1C(=O)[C@H](CCCNC(=N)N)NC(=O)[C@@H]1CCCN1C(=O)[C@H](CCCNC(=N)N)NC(=O)[C@@H]1CCCN1C(=O)[C@H](CCCNC(=N)N)NC(=O)[C@@H]1CCCN1C(=O)[C@H](CCCNC(=N)N)NC(=O)[C@@H]1CCCN1C(=O)[C@H](CCCNC(=N)N)NC(=O)[C@@H]1CCCN1C(=O)[C@H](CCCNC(=N)N)NC(=O)[C@@H]1CCCN1C(=O)[C@H](CCCNC(=N)N)NC(=O)[C@@H]1CCCN1C(=O)[C@H](CCCNC(=N)N)NC(=O)[C@@H]1CCCN1C(=O)[C@H](CCCNC(=N)N)NC(=O)[C@@H]1CCCN1C(=O)[C@H](CCCNC(=N)N)NC(=O)[C@@H]1CCCN1C(=O)[C@H](CCCNC(=N)N)NC(=O)[C@@H]1CCCN1C(=O)[C@H](CCCNC(=N)N)NC(=O)[C@@H]1CCCN1C(=O)[C@H](CCCNC(=N)N)NC(=O)[C@@H]1CCCN1C(=O)[C@H](CCCNC(=N)N)NC(=O)[C@@H]1CCCN1C(=O)[C@H](CCCNC(=N)N)NC(=O)[C@@H]1CCCN1C(=O)[C@H](CCCNC(=N)N)NC(=O)[C@@H]1CCCN1C(=O)[C@H](Cc1ccc(O)cc1)NC(=O)[C@H](CO)NC(=O)CN)C(=O)O
radius of gyration (Nucleophosmin (NPM1, Homo sapiens, UniProt P06748); SANS Guinier analysis; 3 molar excess over NPM1, 25 °C): 97.9 ± 6.08 Å

CCCCCCCC/C=C\CCCCCCCC(=O)NCCO
maximal open probability (Trpv1 (Mus musculus, UniProt Q704Y3, T551V); ion current, agonist, whole-cell patch clamp; T551V; reference: 3 mM 2-APB): 0.37 ± 0.09

O=c1c(-c2ccc(Cl)cc2)coc2cc(O)ccc12
DHEA metabolism (HSD3B1; [3H]-DHEA conversion; LNCaP; 0.1 µM, normalized to protein, unit not given; reference: vehicle): 1.21

CCCCCCCCCCCCCCCC(=O)NCCCC[C@H](NC(=O)[C@H](CCC(=O)O)NC(=O)[C@H](Cc1ccc(O)cc1)NC(=O)[C@H](CCC(=O)O)NC(=O)COCC(=O)NCCCOCCOCCOCCCNC(=O)[C@H](Cc1c[nH]c2ccccc12)NC(=O)[C@H](CCCCN)NC(=O)[C@H](C)NC(=O)[C@H](CCCCNC(=N)N)NC(=O)[C@H](CCC(N)=O)NC(=O)[C@H](Cc1c[nH]cn1)NC(=O)[C@H](CCSC)NC(=O)[C@H](CC(C)C)NC(=O)[C@H](CCC(N)=O)NC(=O)[C@@H](NC(=O)[C@H](CCC(=O)O)NC(=O)C(C)(C)NC(=O)[C@@H](NC(=O)C(C)(C)N)C(C)C)[C@@H](C)CC)C(=O)N[C@@H](CCC(=O)O)C(=O)N[C@@H](Cc1ccc(O)cc1)C(=O)N[C@@H](CCC(=O)O)C(N)=O
cAMP luminescence AUC (PTH1R (Homo sapiens, UniProt Q03431); agonist; Saos-2 with cAMP reporter; 100 nM, 90 min, washout after 30 min ligand; higher = more cAMP): 3100 a.u.

CC(=O)N[C@@H](CC(C)C)C(=O)N[C@@H](Cc1ccccc1)C(=O)N[C@@H](CO)C(=O)N[C@@H](CC(=O)O)C(=O)COC(=O)c1c(C)cccc1C
kinact/KI (CASP10; enzyme activity, inhibitor): 355000 M⁻¹ s⁻¹

Cc1cc(=O)oc2cc(NC(=O)CCCCCCC(=O)NO)ccc12
binding stoichiometry (HDAC8 (Homo sapiens, UniProt Q9BY41); ITC; Hepes buffer; concentration not given, pH 7.5): 0.9

O=C(NC[C@@H](Cc1ccc(F)cc1)N1CCC(O)(C(F)(F)F)CC1)C1(c2ccc(Cl)cc2)CCCC1
EC50 fold change (TRPA1 (Homo sapiens, UniProt O75762, M953V); calcium influx, agonist; reference: M953V mutant over wild type): 15.3

CC(=O)N[C@@H](Cc1c[nH]c2ccccc12)C(=O)N[C@@H](CCC(=O)O)C(=O)N[C@@H](Cc1c[nH]cn1)C(=O)N[C@@H](CC(=O)O)C(=O)COC(=O)c1c(C)cccc1C
kobs/[I] (CASP8; inhibitor; recombinant enzyme): 1.33e+06 M⁻¹ s⁻¹

CCCCCC(O)/C=C/C=O (stereo not shown)
isoTOP-ABPP competition ratio (Desumoylating isopeptidase 1 (DESI1, Homo sapiens, UniProt Q6ICB0); competitive isoTOP-ABPP; Ramos soluble proteome; 100 µM, together with: iodoacetamide probe; reference: DMSO over compound-treated, higher = stronger cysteine blockade): 2.6

COC(=O)[C@]1(C(C)C)C=C(C(=O)Nc2cccc(C(=O)Nc3ccc(Nc4nccc(-c5cccnc5)n4)c(C)c3)c2)C(=O)CC1
ΔΔG bond formation contribution (MAPK8 (Homo sapiens, UniProt P45983); SPR two-step binding model; reversible bond formation): -1.88 kcal/mol

N=C(N)NCCS(=O)(=O)O
normalised MST signal (SLC6A6 (Homo sapiens, UniProt P31641, G62A); binding, microscale thermophoresis; 3.91 µM, room temperature, together with: 50 nM labelled protein; higher = more binding): -0.0512

O=C1c2sc(-c3ccc(N4CCC(F)C4)nc3F)nc2CCN1c1cccnc1 (stereo not shown)
specific binding (TAR DNA-binding protein 43, aggregated (TARDBP, Homo sapiens, UniProt Q13148); radioligand binding; human, FTLD-TDP type B extract; together with: radioligand 72.89 nM): 5.39 nM and 4.51 nM

CCCCCCCCCCCCC/C=C/C=O
isoTOP-ABPP competition ratio (Enoyl-CoA delta isomerase 2 (ECI2, Homo sapiens, UniProt O75521); competitive isoTOP-ABPP; proteome, soluble, MDA-MB-231; 100 µM, 60 min, together with: iodoacetamide probe; reference: DMSO over compound-treated, higher = stronger cysteine blockade): 1.1

CC(C)c1ccccc1-c1coc2cc(O)ccc2c1=O
DHEA metabolism (HSD3B1; [3H]-DHEA conversion; LNCaP; 0.1 µM, normalized to protein, unit not given; reference: vehicle): 0

C[n+]1cn([C@@H]2O[C@H](COP(=O)([O-])OP(=O)(O)CP(=O)(O)OP(=O)(O)OC[C@H]3O[C@@H](n4cnc5c(=O)[nH]c(N)nc54)[C@H](O)[C@@H]3O)[C@@H](O)[C@H]2O)c2nc(N)nc(O)c21
hydrolysis (DCPS (Homo sapiens, UniProt Q96C86); substrate, HPLC; concentration not given, 120 min): 0%

Cc1cc(C)cc(COc2cc3c(cc2OCc2cc(C)cc(C)c2)C2CC(O)(Cc4cn(CCOCCOCCNC(=O)CCCCC5SCC6NC(=O)NC65)nn4)CC(C)N2CC3)c1 (stereo not shown)
SILAC ratio (Atlastin-2 (ATL2, Homo sapiens, UniProt Q8NHH9); biotinylated probe pull-down, item: ATL2; 10 µM probe; reference: heavy over light): 1.48

Some of these lines once more:
CC(=O)N[C@@H](CC(C)C)C(=O)N[C@@H](Cc1ccccc1)C(=O)N[C@@H](CO)C(=O)N[C@@H](CC(=O)O)C(=O)COC(=O)c1c(C)cccc1C
kinact/KI (CASP10; enzyme activity, inhibitor): 355000 M⁻¹ s⁻¹

O=c1c(-c2ccc(Cl)cc2)coc2cc(O)ccc12
DHEA metabolism (HSD3B1; [3H]-DHEA conversion; LNCaP; 0.1 µM, normalized to protein, unit not given; reference: vehicle): 1.21

C[n+]1cn([C@@H]2O[C@H](COP(=O)([O-])OP(=O)(O)CP(=O)(O)OP(=O)(O)OC[C@H]3O[C@@H](n4cnc5c(=O)[nH]c(N)nc54)[C@H](O)[C@@H]3O)[C@@H](O)[C@H]2O)c2nc(N)nc(O)c21
hydrolysis (DCPS (Homo sapiens, UniProt Q96C86); substrate, HPLC; concentration not given, 120 min): 0%

CCCCCC(O)/C=C/C=O (stereo not shown)
isoTOP-ABPP competition ratio (Desumoylating isopeptidase 1 (DESI1, Homo sapiens, UniProt Q6ICB0); competitive isoTOP-ABPP; Ramos soluble proteome; 100 µM, together with: iodoacetamide probe; reference: DMSO over compound-treated, higher = stronger cysteine blockade): 2.6
